Measured values from different studies.
A part holds a random share of what one study measured. Substitutions count along the parent as printed.

Series 1 — technique: protein binding microarray; molecule type: double-stranded DNA, one strand shown; medium: in vitro; tested at: not given; relative to: not given; direction: higher = stronger binding
Target: Histone acetyltransferase KAT6A, both winged helices, GST fusion (KAT6A, Homo sapiens, UniProt Q92794, residues 1-181)
Notes: 8-mer, flanks averaged, mean of 2 arrays, mostly near background
Residues (chain): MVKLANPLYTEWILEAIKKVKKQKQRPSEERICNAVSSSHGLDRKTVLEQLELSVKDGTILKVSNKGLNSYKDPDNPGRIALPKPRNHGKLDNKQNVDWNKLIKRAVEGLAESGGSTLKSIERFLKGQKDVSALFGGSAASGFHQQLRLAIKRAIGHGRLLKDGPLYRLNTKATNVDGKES
Oligonucleotide	E-score
AGACCAGC	-0.0987
CACCCAAC	-0.0757
CGTTAGCC	0.0412
GGTACCCA	-0.0855
CATCGTCC	-0.0065
CCTAGATA	-0.199
AAAGCAAC	-0.0298
GCGTCCAC	0.204
TAAAAGCA	-0.0671
AAGCCATC	-0.0865
ACTCGATC	-0.051
AAAGGCCA	-0.18
ACCAGCGT	-0.0205
CAGTACAC	-0.118
CTAAGCCA	-0.26
ACGAAAGC	0.0786
GGAATTCA	-0.123
ACCATGGC	-0.0829
ACGTCAAG	-0.124

Series 2 — technique: RNA Bind-n-Seq; molecule type: RNA; medium: in vitro; tested at: 200 nM; notes: whole 134-nt RNA, ends assumed; added: 150 mM KCl; relative to: input library; direction: higher = stronger binding
Target: Ras GTPase-activating protein-binding protein 1, full length (G3BP1, Homo sapiens, UniProt Q13283)
Chain of UniProt Q13283 (whole entry, looked up): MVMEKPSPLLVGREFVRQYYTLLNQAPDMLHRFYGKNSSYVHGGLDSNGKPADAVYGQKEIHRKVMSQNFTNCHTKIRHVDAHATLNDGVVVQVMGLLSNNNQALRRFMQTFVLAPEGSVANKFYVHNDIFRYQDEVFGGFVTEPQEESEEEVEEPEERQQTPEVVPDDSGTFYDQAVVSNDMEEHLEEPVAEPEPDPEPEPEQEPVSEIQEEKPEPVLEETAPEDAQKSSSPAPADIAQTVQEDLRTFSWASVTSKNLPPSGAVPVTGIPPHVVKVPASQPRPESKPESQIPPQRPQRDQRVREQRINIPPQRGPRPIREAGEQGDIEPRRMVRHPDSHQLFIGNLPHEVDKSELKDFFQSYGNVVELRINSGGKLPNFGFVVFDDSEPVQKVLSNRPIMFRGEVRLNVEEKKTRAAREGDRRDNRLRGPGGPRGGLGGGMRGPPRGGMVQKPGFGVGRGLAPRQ
All sequences stand within: GGGAGUUCUACAGUCCGACGAUC … UGGAAUUCUCGGGUGUCAAGG
Oligonucleotide	log2 enrichment
CUCAAGUCCUGUGCUACACAUCGUAUGUACCGAAUCGGCCGGGCCGGGGCCGGGAAAGUAUUAUGUUACGCCGUUCGGAUCUGCACUUCC	-0.324
UGUACUGAUGACAGCUAAUCUCUGAAUCUUUUUCCUCCAGGAUGUUCCUUCAGGAGGAAGCAGCACUAAAAGCACUCUGAGUCAAGAUGA	-0.927
UCCUGUGCUACACAUCGUAUGUACCGAAUCGGAAAAAAGGGGAAAAAAGGGAAAAAAGGGAAAGUAUUAUGUUACGCCGUUCGGAUCUGC	-0.437
UGGCCCUGGUGGCAUGCGGGGAGGAAGAGGUGGCCUCAUGGAUCGUGGUGGUUCCGGUGGAAUGUUCAGAGGUGGCCGUGGUGGAGACAG	0.249
UCAAGUCCUGUGCUACACAUCGUAUGUACCGAAUCGGUUUGGUGGUUUUUUUGGAAAGUAUUAUGUUACGCCGUUCGGAUCUGCACUUCC	-0.817
CCUGUGCUACACAUCGUAUGUACCGAAUCGGGGUUUUUUGGGUUUUUUGGGGUUUUUUGGGAAAGUAUUAUGUUACGCCGUUCGGAUCUG	-0.43
UAGGAGGUGGAUUUUGUUUAUUUUUUUAGCUCAUUUCCAGGGGUGGGAAUUUUUUUUUAAUAUGUGUCAUGAAUAAAGUUGUUUUUGAAA	-0.456
AGUCCUGUGCUACACAUCGUAUGUACCGAAUCAAACCCCCAAAUUUUUAAAUUUAAAAAAGUAUUAUGUUACGCCGUUCGGAUCUGCACU	-0.134

Series 3 — technique: DHFR PCA, deep sequencing; medium: yeast; added: (+)-ABA 710 µM; relative to: wild-type fitted maximum; direction: higher = stronger binding
Target: ABI1, truncated, D143A, DHFR fusion (Arabidopsis thaliana)
Notes: methotrexate growth selection, single substitutions
Parent: PYL1, truncated, DHFR fusion (Arabidopsis thaliana); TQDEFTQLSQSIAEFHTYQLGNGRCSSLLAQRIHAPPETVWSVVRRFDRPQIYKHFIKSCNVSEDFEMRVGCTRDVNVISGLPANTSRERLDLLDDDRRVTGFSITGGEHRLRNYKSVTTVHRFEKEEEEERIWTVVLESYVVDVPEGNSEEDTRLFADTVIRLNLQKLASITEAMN; partner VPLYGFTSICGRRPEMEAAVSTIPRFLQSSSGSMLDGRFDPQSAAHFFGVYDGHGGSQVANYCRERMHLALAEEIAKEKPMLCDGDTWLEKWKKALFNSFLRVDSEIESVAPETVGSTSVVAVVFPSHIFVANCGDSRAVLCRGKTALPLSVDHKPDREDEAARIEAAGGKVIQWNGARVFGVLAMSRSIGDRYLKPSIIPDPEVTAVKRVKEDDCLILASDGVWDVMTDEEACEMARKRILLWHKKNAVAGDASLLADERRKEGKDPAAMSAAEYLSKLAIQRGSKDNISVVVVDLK
Change	relative binding score [%]
R24T	97.7
L112N	-14.5
F66C	96.5
G21A	104
V70M	87.2
V142Q	97.5
P146F	46.3
D75E	98.3
V40K	-36.3
T86K	97.5
C72F	93.3
L28K	96.5

Series 4 — technique: protein-binding microarray; molecule type: double-stranded DNA, one strand shown; medium: in vitro; tested at: 940 nM top; notes: 60-bp whole probe; added: salmon DNA 0.4 mg/ml; relative to: random background probes; direction: higher = stronger binding; all sequences stand within: GCCTAGCAC … GTCTTGATTCGCTTGACGCTGCTG
Target: Interferon regulatory factor 5, full length, phosphomimetic (IRF5, Homo sapiens, UniProt Q13568-2, residues 1-514, S451D/S453D/S456D/S462D)
Oligonucleotide	fitted relative affinity [z-score]
TTAGCACTGCTTCTCCTTTAGTGCTAG	0.0188
TTAGGTTTCGGTCTCGGTTAGTGCTAG	14.5
GACCGACTGGGGACTGGGGACGTGCTA	-0.0787
TACCTTAGGTTTTCTGGTTCCGTGCTA	0.255
CTTTAGAGCAAGAACAGCCTGTGCTAG	-0.791
TTAGATCTCAGAATCGATTAGTGCTAG	0.25
TCACAAAAATGATTGGTACTGTGCTAG	-0.21
TTAGATATCAGGCTCGATTAGTGCTAG	0.0171
TCATGCTTGCGTCTGGGACTGTGCTAG	-0.311
GACGGTATCGGGTCTCGGGACGTGCTA	4.76
TCAGGTCTCGCTTCATCACTGTGCTAG	1.89
ATGTTTTGAGTTTTCCTTCAGTGCTAG	0.838
TTTGGTTTCGGGTTTCGGTTAGTGCTA	13.8
TCCCCTCTAGGTCTTCTGAAGTGCTAG	-0.185
TTAGATTTCAGTTTAGATTAGTGCTAG	1.04
CTGGTTTTACTTTCTATCTCGTGCTAG	3.15
TTAGGACTGGACAGTGGGTTAGTGCTA	-0.616
GACGGACTGGGACTGAGGACGTGCTAG	-0.613

Series 5 — target: CCNA1, cyclin fold, Cln2 fusion (human); technique: yeast growth competition, sequencing; medium: yeast; notes: weak parent motif; relative to: not given; direction: higher = stronger binding
Parent: SLBP docking peptide (human); ARYKRKLLINDFG; partner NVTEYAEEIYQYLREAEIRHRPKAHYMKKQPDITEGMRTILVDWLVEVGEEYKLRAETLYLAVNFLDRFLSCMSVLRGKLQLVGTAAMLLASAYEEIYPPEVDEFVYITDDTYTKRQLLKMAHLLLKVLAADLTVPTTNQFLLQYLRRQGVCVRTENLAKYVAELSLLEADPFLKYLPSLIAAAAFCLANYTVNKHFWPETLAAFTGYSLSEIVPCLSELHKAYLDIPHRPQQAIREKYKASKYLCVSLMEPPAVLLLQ
Change	normalised enrichment score
ARYERKLLINDFG [K4E]	0.215
ARYKRKLLIPDFG [N10P]	0.573
ARYKRNLLINDFG [K6N]	0.568
ARYKLKLLINDFG [R5L]	0.598
ARYKRKLLIWDFG [N10W]	0.397
ARYKRKLLINDFY [G13Y]	0.262
ARYKRKLNINDFG [L8N]	0.48
ARYKRPLLINDFG [K6P]	0.35
ARGKRKLLINDFG [Y3G]	0.372
GRYKRKLLINDFG [A1G]	0.425
WRYKRKLLINDFG [A1W]	0.484
ARYKRKLLIRDFG [N10R]	0.119
ARVKRKLLINDFG [Y3V]	0.397

Series 6 — technique: RNA Bind-n-Seq; molecule type: RNA; medium: in vitro; tested at: 365 nM; relative to: no-protein control; direction: higher = stronger binding
Target: RNA binding protein fox-1 homolog 2, RRM domain, GST-SBP tag (RBFOX2, Homo sapiens, UniProt O43251-10, residues 100-194)
Notes: natural RNA segment, single round, ends assumed
All sequences stand within: GGGAGUUCUACAGUCCGACGAUC … UGGAAUUCUCGGGUGCCAA
Residues (chain): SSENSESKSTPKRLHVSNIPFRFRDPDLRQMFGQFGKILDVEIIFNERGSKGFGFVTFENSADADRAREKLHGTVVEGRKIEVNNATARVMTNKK
Oligonucleotide	RBNS enrichment (R)
GUGUAUUUCUUAAAAUACAACUUUGUGUUGUACUUUGAAAUAAAUGAUGCUUUUUUUCAAAAGCCUUAAUUGUUUUGUUUUGCUUUUUUACACUAGCUGCAUUUCCCACC	0.694
GAAGCUGGUGUUCGCUGUCCCCUGUGCACUUCUCGCACUGGGGCAUGGAGUGCCCAUGCAUACUCUGCUGCCGGUCCCCUCACCUGCACUUGAGGGGUCUGGGCAGUCCC	0.812
UAGAGUCACUGACCCUGGAGCGGCUCUCCUGAGAGGUGCUGCAGGCAAAGUGAGACUGACACCUCACUGAGGAAGGGAGACAUAUUCUUGGAGAACUUUCCAUCUGCUUG	0.584
UUUAAUAUAAUUUGACAUUUGAGGAGUACCAUUGCACUAACAGGAAAUCACUGCCGGAGACAGCCCACAUUUCCUUGUAGUUGUUAUUAGGGCACAAACCACUCCACAGU	0.396
ACACGUUUUAUUCUACUCAUAGUGAGCUUAUUCUUAUUUUGGAUUGAUUUUCCAAAACCACAGCUUCAGCAGCAACAAUCAGAAUGUCCAAAUGCUGUCCUUUCCCUUAC	0.311
CCUAAGUGAUGAAACUAGCUGUAAGAAUGUAACAGGGGUUGUGUUUGAAAUAUUUAUAUUCCCAUCGGUGUGUUUAGUCCUAGAAAAUUGCUAGCAGCAGUCUUCUUCAC	2.65
CCUGAGAAUGUAAAAUAGGGCAGUGCCCAGCUGGGGAGGUAGAGGAAAGUGCUAGAGUACAUGGUCCGUGUGUGGCCUAGCUCAUUCCAUGUCAGCAUUUGGUGUUACUC	2.21
AUGUUUAAAGAUGUAAUAUUUUGUACAAGACACACUGGAGAACAAAGGGAACUCAAAACUCUUCCACAUUCUUCCCGAGGAAAUCGACGACGUCCAUCCGUCCCACAGAG	0.283
AAGUUUUUAAUUUGAUGCCCAAUAUAUUCUGACCGUUAAAAAAUUCUUGUUCAUAUGGGAGAAGGGGGAGUAAUGACUUGUACAAACAGUAUUUCUGGUGUAUAUUUUAA	0.55
CCCCUGCCCAUAGGCCAACAACCAUAGUUCCUCACAUUAGUGAUUAGCAGACUCUUUGUGGACGAGUGAAUUUCACAAACAGCACAAUUUCAGAAGAAAUCGAGGGCACA	0.414
CCCCAGUAAGAAGCCAAGGUACAACUCAUUGUACCUACGAGGUACAAACUCAUUUGUAGAAACAAAGUAACUAGAUAUUCCUAUUGAAAUAAGAAUAGAUAUAUUGGUGG	0.343
CAGCUUCUAGCUGGUUCUCUAUUAUCCUGGUAAUAUUGUUUCUCAGCUCUGAAAUUUGAAAGUCUACGAAGAAAGCCUGGGUUCAUCAGCUGCCCAGCCCCACCUCUCCA	0.189

For quick reference, copied from above (series 2):
Oligonucleotide	log2 enrichment
UGGCCCUGGUGGCAUGCGGGGAGGAAGAGGUGGCCUCAUGGAUCGUGGUGGUUCCGGUGGAAUGUUCAGAGGUGGCCGUGGUGGAGACAG	0.249
CUCAAGUCCUGUGCUACACAUCGUAUGUACCGAAUCGGCCGGGCCGGGGCCGGGAAAGUAUUAUGUUACGCCGUUCGGAUCUGCACUUCC	-0.324
UAGGAGGUGGAUUUUGUUUAUUUUUUUAGCUCAUUUCCAGGGGUGGGAAUUUUUUUUUAAUAUGUGUCAUGAAUAAAGUUGUUUUUGAAA	-0.456
UCAAGUCCUGUGCUACACAUCGUAUGUACCGAAUCGGUUUGGUGGUUUUUUUGGAAAGUAUUAUGUUACGCCGUUCGGAUCUGCACUUCC	-0.817
UGUACUGAUGACAGCUAAUCUCUGAAUCUUUUUCCUCCAGGAUGUUCCUUCAGGAGGAAGCAGCACUAAAAGCACUCUGAGUCAAGAUGA	-0.927
UCCUGUGCUACACAUCGUAUGUACCGAAUCGGAAAAAAGGGGAAAAAAGGGAAAAAAGGGAAAGUAUUAUGUUACGCCGUUCGGAUCUGC	-0.437
